Published values gathered from unrelated publications.
Lines come from different studies, so protocols differ. ± gives the spread as reported.
PRIMPOL: PRIMPOL 1-560 (Homo sapiens, UniProt Q96LW4)
Sequence of UniProt Q96LW4 (whole entry, looked up): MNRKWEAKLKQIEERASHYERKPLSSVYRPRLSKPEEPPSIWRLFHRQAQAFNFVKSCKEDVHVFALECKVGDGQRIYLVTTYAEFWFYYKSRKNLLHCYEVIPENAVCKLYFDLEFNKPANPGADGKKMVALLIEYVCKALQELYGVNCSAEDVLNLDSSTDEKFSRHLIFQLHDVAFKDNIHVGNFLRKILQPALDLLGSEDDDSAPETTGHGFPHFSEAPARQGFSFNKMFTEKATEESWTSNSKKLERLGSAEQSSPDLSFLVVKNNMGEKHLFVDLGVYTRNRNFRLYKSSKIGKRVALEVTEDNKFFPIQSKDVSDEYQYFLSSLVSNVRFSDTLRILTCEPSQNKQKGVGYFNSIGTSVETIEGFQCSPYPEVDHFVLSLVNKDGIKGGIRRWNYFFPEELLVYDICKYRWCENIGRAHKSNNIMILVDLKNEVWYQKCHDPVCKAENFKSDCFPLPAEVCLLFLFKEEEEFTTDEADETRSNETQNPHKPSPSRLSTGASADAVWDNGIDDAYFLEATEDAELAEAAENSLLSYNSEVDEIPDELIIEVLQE
GZF1: GZF1 250-711 (Homo sapiens, UniProt Q9H116)
Sequence of UniProt Q9H116 (whole entry, unmodified, looked up): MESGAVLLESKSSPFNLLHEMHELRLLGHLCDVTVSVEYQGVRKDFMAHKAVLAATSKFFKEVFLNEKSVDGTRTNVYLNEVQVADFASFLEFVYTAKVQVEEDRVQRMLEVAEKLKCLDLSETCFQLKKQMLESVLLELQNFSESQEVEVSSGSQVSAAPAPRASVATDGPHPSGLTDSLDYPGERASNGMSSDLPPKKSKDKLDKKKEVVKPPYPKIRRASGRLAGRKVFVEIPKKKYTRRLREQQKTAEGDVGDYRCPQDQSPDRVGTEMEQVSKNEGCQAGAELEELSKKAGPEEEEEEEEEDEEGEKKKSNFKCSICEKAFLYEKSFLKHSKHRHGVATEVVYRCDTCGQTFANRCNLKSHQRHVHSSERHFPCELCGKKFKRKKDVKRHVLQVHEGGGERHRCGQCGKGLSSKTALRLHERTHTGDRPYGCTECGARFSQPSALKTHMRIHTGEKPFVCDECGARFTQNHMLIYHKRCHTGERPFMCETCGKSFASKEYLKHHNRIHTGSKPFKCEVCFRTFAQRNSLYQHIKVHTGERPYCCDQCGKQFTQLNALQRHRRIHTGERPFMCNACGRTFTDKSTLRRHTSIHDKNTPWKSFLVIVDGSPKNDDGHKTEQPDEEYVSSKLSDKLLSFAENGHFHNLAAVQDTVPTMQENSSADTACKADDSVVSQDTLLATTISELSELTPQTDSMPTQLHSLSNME
Sequence of UniProt P39990 (whole entry, looked up): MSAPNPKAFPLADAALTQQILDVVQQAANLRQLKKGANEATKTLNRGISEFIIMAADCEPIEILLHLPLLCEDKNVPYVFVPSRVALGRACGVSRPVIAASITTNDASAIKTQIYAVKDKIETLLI
Sequence of UniProt P14866 (whole entry, looked up): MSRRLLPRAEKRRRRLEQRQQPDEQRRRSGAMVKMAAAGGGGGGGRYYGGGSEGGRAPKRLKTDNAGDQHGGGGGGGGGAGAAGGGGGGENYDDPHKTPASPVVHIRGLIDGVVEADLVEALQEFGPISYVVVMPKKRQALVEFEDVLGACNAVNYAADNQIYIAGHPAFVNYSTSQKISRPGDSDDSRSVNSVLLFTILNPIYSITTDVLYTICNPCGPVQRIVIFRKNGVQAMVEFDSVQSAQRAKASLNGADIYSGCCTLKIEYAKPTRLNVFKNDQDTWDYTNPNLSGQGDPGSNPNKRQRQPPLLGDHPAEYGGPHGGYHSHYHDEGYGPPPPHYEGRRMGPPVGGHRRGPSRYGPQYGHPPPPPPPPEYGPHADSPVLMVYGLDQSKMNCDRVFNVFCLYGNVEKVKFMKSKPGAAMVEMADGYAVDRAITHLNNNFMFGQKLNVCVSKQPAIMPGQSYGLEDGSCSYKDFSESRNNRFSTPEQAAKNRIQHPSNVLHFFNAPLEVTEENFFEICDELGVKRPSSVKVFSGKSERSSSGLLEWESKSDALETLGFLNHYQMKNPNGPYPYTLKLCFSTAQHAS
Sequence of UniProt Q96RJ3 (whole entry, looked up): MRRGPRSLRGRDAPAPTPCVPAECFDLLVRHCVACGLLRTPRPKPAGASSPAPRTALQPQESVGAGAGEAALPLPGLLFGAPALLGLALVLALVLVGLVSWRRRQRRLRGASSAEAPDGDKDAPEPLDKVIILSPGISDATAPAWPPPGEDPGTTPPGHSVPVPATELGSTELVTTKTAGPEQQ

GGGGCUCAAUGCGUUCACGUUUAUUCACAUUUUUGAAUUGAGC (structured RNA; 2'-F pyrimidines)
Kd (TFRC fragment (Homo sapiens); SPR; folded RNA): 0.000692 nM

GCAGCCCAUGAUGGCUGAAUCCGAAAUCCUCGAUGGGUCCAGCUUGAUGUCUUUGCAGC (RNA hairpin (Homo sapiens); K-turn internal loop)
Kd (SNU13 full length assumed (Saccharomyces cerevisiae, UniProt P39990); EMSA; with: Mg2+ 1.5 mM): 180 nM

GGGAGGACGAUGCGGGAGGCUCGGCUUAGUAAGUAAAGAUUGAGCCCGCAUGACGCUCCGAGUGCCAGACGACUCGCCCGA (structured RNA; 2'-F U and C)
relative binding (TNFRSF13C 1-76 (Homo sapiens, UniProt Q96RJ3); filter binding; folded RNA; with: tRNA 20 nM; higher = more RNA bound): > 36 % RNA retained

DNA 1 TTTGCCTCGAGCCAGCCGCAGACGCAC / DNA 2 CCTAGGTGCGTCTGCGGCTGGCTCGAGGC (dsDNA; primer-template, 24 bp, 5 nt overhang)
Kd (PRIMPOL; fluorescence polarization; double-stranded DNA; with: Mg2+ 5 mM): 1200 ± 550 nM

TATTTGGAATGCGCCGCTATAAACCCGGCT (dsDNA)
binding (GZF1; EMSA; double-stranded DNA, one strand shown): binds

TTTGCCTCGAGCCAGCCGCAGACGCAC (ssDNA)
Kd (PRIMPOL; fluorescence polarization; single-stranded DNA; with: Mn2+ 5 mM): 670 ± 180 nM

GATCTCTGCGTGCGCGTCCGTAGCCTACTG (dsDNA)
binding (GZF1; competition; double-stranded DNA, one strand shown): no binding

AACGUACUUUAAGGCCUAUUGAGGAAACUC (ssDNA; all dC Pp-dC; all dU Nap-dU)
Kd (PCSK9 fragment D374Y (Homo sapiens); filter binding): 0.0052 nM

TATTTGGAATGTACCGCTATAAACCCGGCT (dsDNA)
binding (GZF1; competition; double-stranded DNA, one strand shown): no binding

CACGCUCAUGCACACACCCACA (ssRNA)
Kd (HNRNPL 102-270 (Homo sapiens, UniProt P14866); SPR; RNA): 21.4 ± 9.3 nM

GATCTCTGCGTGCGCGTCTGCGGCCTACTG (dsDNA)
binding (GZF1; competition; double-stranded DNA, one strand shown): no binding

DNA 1 TTTGGGGGAAGGATTC / DNA 2 TCACGGAATCCTTCCCCC (dsDNA; primer-template, 13 bp, 5 nt overhang)
Kd (PRIMPOL; fluorescence polarization; double-stranded DNA; with: Mn2+ 5 mM): 27 ± 8 nM
